Published values collected from several papers.
Several values in a cell are separate wells, animals, samples, runs or records. ± marks the error that the study gave.
ABL1 H396P: Tyrosine-protein kinase ABL1 (ABL1, Homo sapiens, UniProt P00519, H396P)
Sequence of UniProt P00519 (whole entry, unmodified, looked up): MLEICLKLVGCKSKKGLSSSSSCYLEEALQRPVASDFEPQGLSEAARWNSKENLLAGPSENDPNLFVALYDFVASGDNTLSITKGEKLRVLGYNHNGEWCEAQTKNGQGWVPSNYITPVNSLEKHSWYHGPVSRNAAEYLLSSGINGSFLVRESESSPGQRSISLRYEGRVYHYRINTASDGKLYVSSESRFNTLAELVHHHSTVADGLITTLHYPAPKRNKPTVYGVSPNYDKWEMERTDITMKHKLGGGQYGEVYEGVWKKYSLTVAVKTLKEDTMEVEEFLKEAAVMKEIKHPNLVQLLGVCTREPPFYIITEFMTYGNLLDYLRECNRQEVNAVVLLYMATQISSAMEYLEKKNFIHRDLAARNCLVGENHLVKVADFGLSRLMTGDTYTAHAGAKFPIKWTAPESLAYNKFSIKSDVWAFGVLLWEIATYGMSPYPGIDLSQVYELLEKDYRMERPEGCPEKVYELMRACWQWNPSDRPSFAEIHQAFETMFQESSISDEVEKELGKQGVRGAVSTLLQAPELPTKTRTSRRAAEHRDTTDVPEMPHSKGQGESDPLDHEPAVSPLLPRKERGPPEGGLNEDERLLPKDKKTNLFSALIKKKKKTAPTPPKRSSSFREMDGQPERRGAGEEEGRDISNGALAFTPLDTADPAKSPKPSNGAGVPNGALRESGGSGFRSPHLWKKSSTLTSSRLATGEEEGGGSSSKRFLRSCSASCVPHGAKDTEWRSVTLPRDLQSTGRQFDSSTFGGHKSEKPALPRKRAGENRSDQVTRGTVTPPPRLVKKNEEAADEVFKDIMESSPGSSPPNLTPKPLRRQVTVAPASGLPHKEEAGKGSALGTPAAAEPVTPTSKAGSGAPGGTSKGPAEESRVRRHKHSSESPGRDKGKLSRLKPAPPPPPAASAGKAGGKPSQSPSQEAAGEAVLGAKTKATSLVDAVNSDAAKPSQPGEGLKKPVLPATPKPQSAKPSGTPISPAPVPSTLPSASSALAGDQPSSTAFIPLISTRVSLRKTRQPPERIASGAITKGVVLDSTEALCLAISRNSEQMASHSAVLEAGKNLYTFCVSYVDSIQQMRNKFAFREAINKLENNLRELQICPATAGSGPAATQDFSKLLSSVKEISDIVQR
Aryl hydrocarbon receptor: Aryl hydrocarbon receptor (Danio rerio, UniProt Q9YGV3)
TOP2A: DNA topoisomerase 2-alpha (TOP2A, Homo sapiens, UniProt P11388)
Sequence of UniProt P11388 (whole entry, looked up): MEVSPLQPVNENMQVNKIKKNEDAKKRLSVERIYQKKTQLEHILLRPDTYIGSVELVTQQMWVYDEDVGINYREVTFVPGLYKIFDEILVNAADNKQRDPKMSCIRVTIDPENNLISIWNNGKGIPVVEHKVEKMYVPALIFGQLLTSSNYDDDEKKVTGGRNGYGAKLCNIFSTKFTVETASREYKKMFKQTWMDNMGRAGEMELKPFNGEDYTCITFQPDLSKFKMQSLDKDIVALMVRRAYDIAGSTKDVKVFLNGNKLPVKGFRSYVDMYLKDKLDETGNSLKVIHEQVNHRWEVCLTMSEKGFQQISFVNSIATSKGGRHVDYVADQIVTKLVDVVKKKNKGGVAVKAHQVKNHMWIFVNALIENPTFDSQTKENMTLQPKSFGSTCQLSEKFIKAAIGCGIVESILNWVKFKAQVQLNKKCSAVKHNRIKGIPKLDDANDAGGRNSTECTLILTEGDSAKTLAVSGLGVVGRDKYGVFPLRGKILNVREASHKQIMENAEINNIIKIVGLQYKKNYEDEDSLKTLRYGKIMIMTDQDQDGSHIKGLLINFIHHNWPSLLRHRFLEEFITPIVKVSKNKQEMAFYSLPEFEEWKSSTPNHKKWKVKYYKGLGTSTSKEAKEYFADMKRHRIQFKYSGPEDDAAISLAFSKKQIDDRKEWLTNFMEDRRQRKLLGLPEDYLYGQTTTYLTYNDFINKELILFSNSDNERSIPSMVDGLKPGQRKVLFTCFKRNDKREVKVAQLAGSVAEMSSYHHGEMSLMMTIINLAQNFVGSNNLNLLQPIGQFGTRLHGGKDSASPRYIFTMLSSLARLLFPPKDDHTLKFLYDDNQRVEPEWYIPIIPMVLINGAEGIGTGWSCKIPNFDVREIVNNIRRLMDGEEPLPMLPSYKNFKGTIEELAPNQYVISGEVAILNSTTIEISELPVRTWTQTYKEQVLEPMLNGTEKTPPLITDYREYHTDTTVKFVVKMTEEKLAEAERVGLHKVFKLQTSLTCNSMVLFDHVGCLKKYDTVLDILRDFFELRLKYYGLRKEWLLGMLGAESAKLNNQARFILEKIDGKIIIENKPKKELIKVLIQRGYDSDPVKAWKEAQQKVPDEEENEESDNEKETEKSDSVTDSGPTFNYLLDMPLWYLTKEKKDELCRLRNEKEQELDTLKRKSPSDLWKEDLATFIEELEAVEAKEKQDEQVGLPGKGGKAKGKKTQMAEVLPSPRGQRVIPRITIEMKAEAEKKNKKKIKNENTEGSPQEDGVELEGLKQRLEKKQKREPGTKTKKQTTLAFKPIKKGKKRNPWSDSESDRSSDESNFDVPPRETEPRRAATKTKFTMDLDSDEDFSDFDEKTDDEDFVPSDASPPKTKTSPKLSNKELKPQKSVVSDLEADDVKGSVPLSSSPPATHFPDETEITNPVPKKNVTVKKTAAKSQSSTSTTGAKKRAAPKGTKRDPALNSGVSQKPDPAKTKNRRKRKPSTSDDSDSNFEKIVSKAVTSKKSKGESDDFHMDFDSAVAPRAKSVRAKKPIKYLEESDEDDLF
NF-kappa-B inhibitor alpha: NF-kappa-B inhibitor alpha (Homo sapiens, UniProt P25963)
Sequence of UniProt Q16774 (whole entry, unmodified, looked up): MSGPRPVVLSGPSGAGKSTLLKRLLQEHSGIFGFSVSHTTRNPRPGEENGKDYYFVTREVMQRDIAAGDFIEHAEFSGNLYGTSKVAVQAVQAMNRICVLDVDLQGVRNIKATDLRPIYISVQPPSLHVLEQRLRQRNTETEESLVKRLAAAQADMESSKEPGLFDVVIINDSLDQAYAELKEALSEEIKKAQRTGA
Sequence of UniProt O15305 (whole entry, looked up): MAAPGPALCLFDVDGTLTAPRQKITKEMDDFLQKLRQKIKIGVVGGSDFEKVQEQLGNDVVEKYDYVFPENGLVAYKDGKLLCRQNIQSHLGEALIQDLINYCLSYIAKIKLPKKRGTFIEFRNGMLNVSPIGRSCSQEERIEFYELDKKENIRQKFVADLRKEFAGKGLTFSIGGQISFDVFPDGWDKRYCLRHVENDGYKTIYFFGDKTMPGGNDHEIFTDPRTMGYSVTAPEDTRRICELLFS
Sequence of UniProt P51575 (whole entry, looked up): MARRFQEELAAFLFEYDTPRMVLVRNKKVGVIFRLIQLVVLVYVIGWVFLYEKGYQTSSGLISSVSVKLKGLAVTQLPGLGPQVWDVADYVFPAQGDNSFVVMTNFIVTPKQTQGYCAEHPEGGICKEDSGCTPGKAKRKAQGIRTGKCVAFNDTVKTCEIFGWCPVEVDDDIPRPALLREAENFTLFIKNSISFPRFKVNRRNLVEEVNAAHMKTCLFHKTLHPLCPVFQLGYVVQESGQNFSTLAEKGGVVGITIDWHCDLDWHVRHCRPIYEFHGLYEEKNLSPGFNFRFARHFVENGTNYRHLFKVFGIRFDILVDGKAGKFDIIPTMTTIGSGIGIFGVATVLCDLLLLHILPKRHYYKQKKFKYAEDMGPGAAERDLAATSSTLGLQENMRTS
Sequence of UniProt P25963 (whole entry, looked up): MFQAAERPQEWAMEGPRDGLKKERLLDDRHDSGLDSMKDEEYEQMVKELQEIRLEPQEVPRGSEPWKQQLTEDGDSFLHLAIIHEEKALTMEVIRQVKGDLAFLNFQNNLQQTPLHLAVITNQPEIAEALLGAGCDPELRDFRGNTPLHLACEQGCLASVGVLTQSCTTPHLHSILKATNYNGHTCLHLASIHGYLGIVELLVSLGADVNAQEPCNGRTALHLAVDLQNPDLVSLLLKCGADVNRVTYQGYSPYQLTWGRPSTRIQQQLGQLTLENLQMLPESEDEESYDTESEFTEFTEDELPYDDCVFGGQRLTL
Sequence of UniProt Q9UH17 (whole entry, looked up): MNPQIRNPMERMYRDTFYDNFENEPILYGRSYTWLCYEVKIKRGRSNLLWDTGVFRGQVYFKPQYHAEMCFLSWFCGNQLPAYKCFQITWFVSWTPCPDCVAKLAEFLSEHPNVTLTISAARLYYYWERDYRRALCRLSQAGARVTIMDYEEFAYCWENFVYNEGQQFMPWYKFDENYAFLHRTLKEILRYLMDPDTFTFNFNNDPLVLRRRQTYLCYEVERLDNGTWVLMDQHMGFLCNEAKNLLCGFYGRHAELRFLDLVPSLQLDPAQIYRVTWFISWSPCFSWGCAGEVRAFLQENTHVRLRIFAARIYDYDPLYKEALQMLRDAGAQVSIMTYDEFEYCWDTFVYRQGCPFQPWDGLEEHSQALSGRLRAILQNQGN
Sequence of UniProt Q01105 (whole entry, unmodified, looked up): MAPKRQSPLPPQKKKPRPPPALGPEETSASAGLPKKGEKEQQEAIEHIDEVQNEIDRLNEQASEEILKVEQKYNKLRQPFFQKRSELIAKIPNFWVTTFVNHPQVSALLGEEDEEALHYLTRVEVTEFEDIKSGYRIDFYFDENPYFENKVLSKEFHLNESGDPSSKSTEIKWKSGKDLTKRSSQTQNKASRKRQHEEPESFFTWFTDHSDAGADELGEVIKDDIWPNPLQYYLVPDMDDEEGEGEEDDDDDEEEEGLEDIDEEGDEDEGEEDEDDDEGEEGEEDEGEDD
Sequence of UniProt P62813 (whole entry, looked up): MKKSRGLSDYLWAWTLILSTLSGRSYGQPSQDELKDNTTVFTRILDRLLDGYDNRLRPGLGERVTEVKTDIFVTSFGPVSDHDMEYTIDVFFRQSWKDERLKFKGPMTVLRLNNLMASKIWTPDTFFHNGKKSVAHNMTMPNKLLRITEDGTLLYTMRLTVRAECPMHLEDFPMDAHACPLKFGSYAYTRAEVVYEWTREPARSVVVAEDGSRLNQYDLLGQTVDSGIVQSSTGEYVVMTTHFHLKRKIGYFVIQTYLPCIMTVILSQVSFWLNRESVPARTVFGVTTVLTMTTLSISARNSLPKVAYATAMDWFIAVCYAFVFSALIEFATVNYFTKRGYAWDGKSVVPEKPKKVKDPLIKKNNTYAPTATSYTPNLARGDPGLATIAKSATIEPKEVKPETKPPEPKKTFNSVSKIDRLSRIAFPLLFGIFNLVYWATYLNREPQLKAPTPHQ

Cn1cc(-c2ccc(-c3cncc(Cl)c3N3CCC4(CCNC4=O)CC3)cc2)cn1  log2 fold change (COLO 205; gene expression, microarray, measured: PDE3A mRNA; concentration not given, 2 h; reference: untreated cells): 1.04
Nc1cccc(C(=O)Nc2ccc3[nH]ccc3c2)c1  fibril formation (Alpha-synuclein (SNCA, Homo sapiens, UniProt P37840); ThT kinetics; concentration not given, added: SNCA 2 µM): inhibited
C[C@H]1CCN(c2nccc(-c3cnn4ncccc34)n2)C1  remaining binding (Tyrosine-protein kinase ABL1 (ABL1, Homo sapiens, UniProt P00519, F317L); 1 µM; reference: control): 71%
O=C(COP(=O)(O)O)[C@@H](O)[C@H](O)[C@H](O)COP(=O)(O)O  thermal stability ratio (Phosphomannomutase 2 (PMM2, Homo sapiens, UniProt O15305); thermal proteome profiling; HepG2 cell lysate; concentration not given, 57 over 37 °C; reference: compound over control): 3.56 and 5.43 and 5.38
C[C@H](N)C(=O)O  number of binding sites (Lysozyme C (LYZ, Gallus gallus, UniProt P00698); intrinsic fluorescence; concentration not given, pH 6.9, 25 °C, lysozyme 10 µM): 0.92 ± 0.03
COC(=O)CCc1ccc(C(=O)N/N=C/C(Br)=C/c2ccccc2)cc1  enzyme activity (Protein deacetylase HDAC6 (HDAC6, Homo sapiens, UniProt Q9UBN7); inhibitor, fluorogenic; 5 and 10 µM; reference: SAHA): no effect
CC(C)OCCn1c(=S)[nH]c(=O)c2[nH]ccc21  H2O2 consumption (Myeloperoxidase (MPO, Homo sapiens, UniProt P05164); enzyme activity, inhibitor, H2O2 electrode; 0.68 µM): 21%
Cc1cnn2ncc(-c3ccnc(N(C)C)n3)c2c1  remaining binding (ABL1 H396P; KINOMEscan; 1 µM): 97%
CCC1(O)CCCN(C(=O)c2ccc(-c3ccc(F)c(NC(=O)CCl)c3)cc2)C1 (centres unmarked)  unmodified protein (DNA dC->dU-editing enzyme APOBEC-3B, C-terminal domain (Homo sapiens, UniProt Q9UH17); covalent modifier, intact protein mass spectrometry; 125 µM, 1 h, 5-fold molar excess): 52% and 64%
Cn1nc2c3ccccc3n(Cc3ccccc3)cc-2c1=O  maximal ACh response (Muscarinic acetylcholine receptor M1 (CHRM1, Homo sapiens, UniProt P11229); calcium mobilization, positive allosteric modulator; CHO-K1 cells; 30 µM, added: submaximal acetylcholine): 48%
CC1(C)CC2(C)OC(=O)NC2(C)c2ccccc21 (centres unmarked)  log fold enrichment (Huntingtin (HTT, Homo sapiens, UniProt P42858); binding, affinity selection mass spectrometry; reference: other proteins in batch): 0.243
Nc1ccc2ccc3cccc4ccc1c2c34  fold change (Aryl hydrocarbon receptor; reporter gene, agonist, luciferase reporter; ZF-4; 1111.11 µM; reference: vehicle control): 1.96
Cn1c2c(c3ccc(Cl)c(Cl)c31)C(C#N)C1(CCNCC1)NC2=O (racemic)  delta Tm (Serine/threonine-protein kinase VRK3 (VRK3, Homo sapiens, UniProt Q8IV63); thermal stability, thermal shift; 10 µM; higher = stronger binding): 0.1 °C
Cc1cc2ccccc2c2ccc3ccccc3c12  fold change (Aryl hydrocarbon receptor; reporter gene, agonist, luciferase reporter; ZF-4; 3333.33 µM; reference: vehicle control): 4.32
O=C(CCCCCCC(=O)Nc1ccccc1)NO  binding stoichiometry (Histone deacetylase 8 (HDAC8, Homo sapiens, UniProt Q9BY41); ITC; Tris-HCl buffer; concentration not given, 278 K): 0.8
CC(C)[C@H](NC(=O)c1cc(-c2cnn3cc(-c4ccc(OCCN5CCCCC5)cc4)cnc23)cs1)C(F)(F)F  relative inhibition (PLK1 (human); radiometric kinase; 15 nM; reference: PLK1 over ULK1): 0.0114
CCOC(=O)C(C)c1n[nH]c2nc(N)[nH]c(=O)c2c1=O (centres unmarked)  melting temperature (Dihydropteroate synthase (folP, Bacteria, UniProt P0AC13); CETSA HiBiT; whole cells): 63.5 °C
O=c1nc(SCc2cc(F)cc(C(F)(F)F)c2)nc(SCc2csc3ccc(Cl)cc23)[nH]1  linear DNA (TOP2A; DNA cleavage; 3.9 µM, replicate 2): 0%
CN(c1nccc(-c2cnn3ncccc23)n1)C1CC1  remaining binding (ABL1 H396P; 1 µM; reference: DMSO control): 100%
Oc1ccccc1-c1n[nH]cc1-c1ccnc2ccccc12  log2 fold change (Serine/threonine-protein kinase STE7 homolog (HST7, Candida albicans, UniProt Q5A6T5); kinase binding, MIB/MS competition; Candida albicans lysate; 1 µM; reference: DMSO, negative = stronger binding): -0.03
CC[C@@H]1[C@H](F)C(=O)N[C@@H]1COc1nccc2cc(C(N)=O)c(OC)cc12  inhibition (Serine/threonine-protein kinase 3 (STK3, Homo sapiens, UniProt Q13188); ATP-site probe binding, ActivX profiling, measured: MST2; THP-1 cell lysate; 0.2 mM, Lys1 site): -9.3%
Nc1ncnc2c1ncn2[C@@H]1O[C@H](COP(=O)(O)CP(=O)(O)OP(=O)(O)O)[C@@H](O)[C@H]1O  specific binding (P2X purinoceptor 1 (P2RX1, Homo sapiens, UniProt P51575); saturation binding; HEK293; 103 nM): 9210 CCPM and 8570 CCPM and 10200 CCPM and 4650 CCPM and 4760 CCPM
CCCCCCCCCCCCC/C=C/[C@@H](O)[C@H](CO)NC(=O)CCCCCCCCCCCCCCCCCCCCCCCCC  lipid fraction bound (Protein SET (SET, Homo sapiens, UniProt Q01105); lipid binding, GFP pull-down LC-MS/MS; A549 overexpressing GFP-tagged protein; reference: eluate plus flow-through): 11.7%
O=c1nc(SCc2cc(F)cc(C(F)(F)F)c2)nc(SCc2ccc3sccc3c2)[nH]1  mean linear DNA (TOP2A; DNA cleavage; 15.6 µM): 2.03%
COc1cc(-c2cc(C(C)=O)n3ccccc23)c(OC)cc1Cn1ccnc1  ΔTm (SWI/SNF-related matrix-associated actin-dependent regulator of chromatin subfamily A member 2 (SMARCA2, Homo sapiens, UniProt P51531)): -1.5 °C
Nc1nc2c(ncn2[C@@H]2O[C@H](COP(=O)(O)O)[C@@H](O)[C@H]2O)c(=O)[nH]1  reaction rate (GUK1 (Homo sapiens, UniProt Q16774, R148A); enzyme activity, NADH-coupled; 500 µM): 0.275 s⁻¹ and 1.01 s⁻¹ and 0.624 s⁻¹
Cc1ccc(N2CC(C(N)=O)CC2=O)cc1 (centres unmarked)  fold enrichment (DDB1- and CUL4-associated factor 7 (Homo sapiens, UniProt P61962); binding, affinity selection mass spectrometry; reference: other proteins in batch): 1
O=C(O)c1ccc(Nc2ncc3c(n2)-c2ccc(Cl)cc2C(c2c(F)cccc2F)=NC3)cc1  remaining activity (human Lck(h); kinase activity; 1 µM): 59%
CCCCCCCCCCCCC/C=C/[C@@H](O)[C@H](CO)NC(=O)CCCCCCCCCCCCCCCCCCCCCCC  bound endogenous lipid (Protein SET (SET, Homo sapiens, UniProt Q01105, Y135C); lipid binding, GFP pull-down LC-MS/MS; A549 overexpressing GFP-tagged protein; unit not given; reference: vector-transfected cells): 5.5
C=CC(=O)N1CCC[C@@H](n2nc(-c3ccc(Oc4ccccc4)cc3)c3c(N)ncnc32)C1  remaining activity (Fibroblast growth factor receptor 4 (FGFR4, Homo sapiens, UniProt P22455); 1 µM): 99.1%
CC[C@H](C)[C@H](NC(=O)[C@H](CCCNC(=N)N)NC(=O)[C@H](Cc1c[nH]cn1)NC(=O)[C@H](CCCNC(=N)N)NC(=O)[C@H](CC(=O)O)NC(=O)[C@H](CC(=O)O)NC(=O)[C@@H](NC(=O)[C@H](CC(=O)O)NC(=O)[C@@H]1CCCN1C(=O)[C@@H](N)CC(C)C)[C@@H](C)O)C(=O)N[C@@H](CCC(=O)O)C(=O)N[C@@H](CCC(=O)O)C(=O)N[C@@H](CCCCN)C(=O)N[C@@H](CCCNC(=N)N)C(=O)N[C@@H](CCCCN)C(=O)N[C@@H](CCCNC(=N)N)C(=O)N[C@H](C(=O)N[C@@H](C)C(=O)N[C@@H](CCC(=O)O)C(=O)N[C@H](C(=O)N[C@@H](Cc1ccccc1)C(=O)N[C@@H](CCCCN)C(=O)N[C@@H](CO)C(=O)N[C@H](C(=O)N[C@@H](CCSC)C(=O)N[C@@H](CCCCN)C(=O)N[C@@H](CCCCN)C(=O)N[C@@H](CO)C(=O)N1CCC[C@H]1C(=O)N[C@@H](Cc1ccccc1)C(=O)N[C@@H](CC(N)=O)C(=O)NCC(=O)N1CCC[C@H]1C(=O)O)[C@@H](C)CC)[C@@H](C)O)[C@@H](C)O  ΔG (NF-kappa-B inhibitor alpha; binding, ITC; pH 7.5, 293 K, 50 mM NaCl): -7.5 ± 0.1 kcal/mol
Cc1ccc(N(C)C(=O)/C=C/c2ccco2)cc1  potentiation EC50 (Nicotinic acetylcholine receptor alpha9/alpha10 (Rattus norvegicus, UniProt P43144+Q9JLB5); positive allosteric modulator; rat α9α10 expressing cells; added: ACh 10 µM): inactive
CC(C)C[C@H](NC(=O)C[C@H](O)[C@H](CC(C)C)NC(=O)[C@H](Cc1c[nH]cn1)NC(=O)CNC(=O)[C@@H](NC(=O)[C@H](C)NC(=O)[C@H](Cc1c[nH]c2ccccc12)NC(=O)[C@H](CCC(N)=O)NC(=O)[C@@H](Cc1ccccc1)NC(=O)COCCOCCNC(=O)CCC(C(=O)O)N1CCN(CC(=O)O)CCN(CC(=O)O)CCN(CC(=O)O)CC1)C(C)C)C(N)=O (some centres unmarked) [lutetium-177 labelled]  tissue uptake (BALB/c nu/nu mice, female, pancreas; 50 pmol, 1 h, added: PA 300 µg): 12 ± 2 %ID/g
CC[C@H](C)[C@H](NC(=O)[C@H](CCCNC(=N)N)NC(=O)[C@H](Cc1c[nH]cn1)NC(=O)[C@H](CCCNC(=N)N)NC(=O)[C@H](CC(=O)O)NC(=O)[C@H](CC(=O)O)NC(=O)[C@@H](NC(=O)[C@H](CC(=O)O)NC(=O)[C@@H]1CCCN1C(=O)[C@@H](N)CC(C)C)[C@@H](C)O)C(=O)N[C@@H](CCC(=O)O)C(=O)N[C@@H](CCC(=O)O)C(=O)N[C@@H](CCCCN)C(=O)N[C@@H](CCCNC(=N)N)C(=O)N[C@@H](CCCCN)C(=O)N[C@@H](CCCNC(=N)N)C(=O)N[C@H](C(=O)N[C@@H](Cc1ccc(O)cc1)C(=O)N[C@@H](CCC(=O)O)C(=O)N[C@H](C(=O)N[C@@H](Cc1ccccc1)C(=O)N[C@@H](CCCCN)C(=O)N[C@@H](CO)C(=O)N[C@H](C(=O)N[C@@H](CCSC)C(=O)N[C@@H](CCCCN)C(=O)N[C@@H](CCCCN)C(=O)N[C@@H](CO)C(=O)N1CCC[C@H]1C(=O)N[C@@H](Cc1ccccc1)C(=O)N[C@@H](CC(N)=O)C(=O)NCC(=O)N1CCC[C@H]1C(=O)O)[C@@H](C)CC)[C@@H](C)O)[C@@H](C)O  ΔH (NF-kappa-B inhibitor alpha; binding, ITC; 293 K, 150 mM NaCl): -3.6 ± 0.4 kcal/mol
CN1C(=O)/C(=C2\Nc3ccccc3\C2=N/O)c2ccc(Br)cc21  fold change (Aryl hydrocarbon receptor; reporter gene, agonist, luciferase reporter; ZF-4; 0.0064 µM; reference: vehicle control): 2.01
Cc1cc(Nc2ncnc3ccc(NC4=NC(C)(C)CO4)cc23)ccc1Oc1ccn2ncnc2c1  Cmax, mean (Cytochrome P450 3A4 (CYP3A4, Homo sapiens, UniProt P08684); human, plasma; oral, 300 mg, day 1, single dose alone): 511 ng/mL
NC(=O)c1ccc[n+]([C@@H]2O[C@H](COP(=O)(O)OP(=O)(O)OC[C@H]3O[C@@H](n4cnc5c(N)ncnc54)[C@H](O)[C@@H]3O)[C@@H](O)[C@H]2O)c1  Km (Aldehyde dehydrogenase, dimeric NADP-preferring (ALDH3A1, Homo sapiens, UniProt P30838); substrate): 140 ± 10 µM
COc1ccc(NC(=O)c2cccc(C)c2I)cc1  normalized score (GABA-A receptor; alpha-1/beta-2/gamma-2 (Rattus norvegicus, UniProt P18508+P62813+P63138); membrane potential, agonist, QP-DHM primary screen; HEK293 expressing GABAA; 10 µM; direction not given): 0.46
